Assay results of several laboratories.
Parts stem from different laboratories: compare values within a part only. Values joined by “and” are separate records of one study, mostly repeats; a detail may differ.
Chain of UniProt Q8TDU9 (whole entry, looked up): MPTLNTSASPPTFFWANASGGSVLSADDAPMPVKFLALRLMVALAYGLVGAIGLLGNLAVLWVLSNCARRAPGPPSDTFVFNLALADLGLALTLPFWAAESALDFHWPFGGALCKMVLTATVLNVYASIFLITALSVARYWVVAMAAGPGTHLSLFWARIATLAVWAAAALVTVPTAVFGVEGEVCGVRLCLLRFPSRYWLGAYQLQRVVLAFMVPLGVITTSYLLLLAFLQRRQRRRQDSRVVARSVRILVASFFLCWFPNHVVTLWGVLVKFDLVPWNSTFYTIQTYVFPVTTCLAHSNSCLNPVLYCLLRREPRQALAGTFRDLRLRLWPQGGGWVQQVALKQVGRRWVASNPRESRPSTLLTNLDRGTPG
Chain of UniProt P00519 (whole entry, unmodified, looked up): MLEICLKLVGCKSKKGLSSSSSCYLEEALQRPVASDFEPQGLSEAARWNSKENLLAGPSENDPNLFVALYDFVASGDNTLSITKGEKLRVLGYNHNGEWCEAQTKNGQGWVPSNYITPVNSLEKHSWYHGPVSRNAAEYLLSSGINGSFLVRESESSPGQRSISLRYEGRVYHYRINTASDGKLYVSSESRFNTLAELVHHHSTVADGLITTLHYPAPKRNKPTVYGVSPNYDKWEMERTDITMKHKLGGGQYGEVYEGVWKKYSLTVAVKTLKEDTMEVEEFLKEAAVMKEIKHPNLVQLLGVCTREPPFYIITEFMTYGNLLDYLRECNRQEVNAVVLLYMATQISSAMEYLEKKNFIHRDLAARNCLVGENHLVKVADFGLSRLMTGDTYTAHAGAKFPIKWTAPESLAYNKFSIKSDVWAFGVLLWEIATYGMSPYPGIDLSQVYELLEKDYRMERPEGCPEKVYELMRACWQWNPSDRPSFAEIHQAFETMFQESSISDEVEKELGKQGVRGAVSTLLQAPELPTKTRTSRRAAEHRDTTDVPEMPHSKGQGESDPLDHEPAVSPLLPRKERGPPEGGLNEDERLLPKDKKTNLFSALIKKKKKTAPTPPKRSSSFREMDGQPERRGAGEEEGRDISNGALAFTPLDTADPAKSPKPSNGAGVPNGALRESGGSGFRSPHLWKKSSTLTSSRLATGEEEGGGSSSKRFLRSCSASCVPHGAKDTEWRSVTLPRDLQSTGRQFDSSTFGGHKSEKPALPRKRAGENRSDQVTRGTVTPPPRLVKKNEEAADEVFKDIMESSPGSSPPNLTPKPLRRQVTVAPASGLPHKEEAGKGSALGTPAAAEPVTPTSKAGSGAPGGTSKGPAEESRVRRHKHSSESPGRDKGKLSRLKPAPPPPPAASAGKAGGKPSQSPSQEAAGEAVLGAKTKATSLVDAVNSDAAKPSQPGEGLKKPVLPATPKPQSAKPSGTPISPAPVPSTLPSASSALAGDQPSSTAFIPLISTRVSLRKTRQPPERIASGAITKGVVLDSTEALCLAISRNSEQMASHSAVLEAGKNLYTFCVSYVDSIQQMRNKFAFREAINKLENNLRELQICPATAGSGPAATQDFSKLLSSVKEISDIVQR
Chain of UniProt P29320 (whole entry, looked up): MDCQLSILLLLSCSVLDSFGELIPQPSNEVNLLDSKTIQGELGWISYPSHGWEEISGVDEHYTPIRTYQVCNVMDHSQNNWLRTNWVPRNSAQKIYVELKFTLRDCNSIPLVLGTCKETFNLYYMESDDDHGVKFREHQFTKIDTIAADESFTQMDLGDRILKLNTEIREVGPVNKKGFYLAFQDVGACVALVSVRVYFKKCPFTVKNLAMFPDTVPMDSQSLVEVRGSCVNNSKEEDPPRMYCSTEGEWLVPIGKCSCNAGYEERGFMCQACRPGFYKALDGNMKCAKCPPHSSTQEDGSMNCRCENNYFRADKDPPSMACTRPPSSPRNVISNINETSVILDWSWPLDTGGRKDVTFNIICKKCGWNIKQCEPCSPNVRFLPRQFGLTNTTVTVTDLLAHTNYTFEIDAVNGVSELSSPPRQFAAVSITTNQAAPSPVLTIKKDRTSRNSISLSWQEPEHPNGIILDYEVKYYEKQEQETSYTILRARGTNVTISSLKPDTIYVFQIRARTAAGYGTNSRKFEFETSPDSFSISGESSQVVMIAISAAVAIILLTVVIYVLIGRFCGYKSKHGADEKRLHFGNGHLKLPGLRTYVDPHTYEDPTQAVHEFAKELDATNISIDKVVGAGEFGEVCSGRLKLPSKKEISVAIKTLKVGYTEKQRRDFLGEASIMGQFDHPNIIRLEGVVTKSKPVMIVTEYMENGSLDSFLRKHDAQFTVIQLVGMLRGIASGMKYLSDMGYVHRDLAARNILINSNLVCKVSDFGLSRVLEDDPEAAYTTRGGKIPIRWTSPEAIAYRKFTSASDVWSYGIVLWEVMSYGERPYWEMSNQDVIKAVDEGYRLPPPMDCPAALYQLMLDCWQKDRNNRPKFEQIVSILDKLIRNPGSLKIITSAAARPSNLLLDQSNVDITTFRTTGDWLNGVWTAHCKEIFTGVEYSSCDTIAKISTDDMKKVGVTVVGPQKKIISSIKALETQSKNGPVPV
Chain of UniProt P41240 (whole entry, looked up): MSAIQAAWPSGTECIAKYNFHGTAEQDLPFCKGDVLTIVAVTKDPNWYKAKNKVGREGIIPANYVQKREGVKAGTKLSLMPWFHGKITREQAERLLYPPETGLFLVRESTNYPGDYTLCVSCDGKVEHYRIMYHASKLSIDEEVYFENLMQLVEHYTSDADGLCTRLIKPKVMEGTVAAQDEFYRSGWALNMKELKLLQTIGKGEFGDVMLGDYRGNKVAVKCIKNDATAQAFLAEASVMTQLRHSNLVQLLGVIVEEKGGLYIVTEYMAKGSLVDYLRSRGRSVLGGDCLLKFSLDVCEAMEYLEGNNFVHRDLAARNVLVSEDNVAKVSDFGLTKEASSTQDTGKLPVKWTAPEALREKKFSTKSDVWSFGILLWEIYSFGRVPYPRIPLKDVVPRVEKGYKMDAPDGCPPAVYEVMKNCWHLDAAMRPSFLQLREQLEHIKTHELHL
Chain of UniProt P32248 (whole entry, looked up): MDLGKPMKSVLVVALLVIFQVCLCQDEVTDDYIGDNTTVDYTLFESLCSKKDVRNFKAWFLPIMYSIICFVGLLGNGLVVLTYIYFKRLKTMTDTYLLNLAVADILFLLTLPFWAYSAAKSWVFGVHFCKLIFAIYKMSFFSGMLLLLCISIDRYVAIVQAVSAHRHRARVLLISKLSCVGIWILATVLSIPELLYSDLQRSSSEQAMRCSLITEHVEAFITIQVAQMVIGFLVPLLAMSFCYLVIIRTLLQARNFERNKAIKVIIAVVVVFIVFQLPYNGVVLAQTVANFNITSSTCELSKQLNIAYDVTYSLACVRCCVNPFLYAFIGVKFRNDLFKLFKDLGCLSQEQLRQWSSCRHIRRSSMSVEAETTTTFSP
Chain of UniProt Q8WTQ7 (whole entry, looked up): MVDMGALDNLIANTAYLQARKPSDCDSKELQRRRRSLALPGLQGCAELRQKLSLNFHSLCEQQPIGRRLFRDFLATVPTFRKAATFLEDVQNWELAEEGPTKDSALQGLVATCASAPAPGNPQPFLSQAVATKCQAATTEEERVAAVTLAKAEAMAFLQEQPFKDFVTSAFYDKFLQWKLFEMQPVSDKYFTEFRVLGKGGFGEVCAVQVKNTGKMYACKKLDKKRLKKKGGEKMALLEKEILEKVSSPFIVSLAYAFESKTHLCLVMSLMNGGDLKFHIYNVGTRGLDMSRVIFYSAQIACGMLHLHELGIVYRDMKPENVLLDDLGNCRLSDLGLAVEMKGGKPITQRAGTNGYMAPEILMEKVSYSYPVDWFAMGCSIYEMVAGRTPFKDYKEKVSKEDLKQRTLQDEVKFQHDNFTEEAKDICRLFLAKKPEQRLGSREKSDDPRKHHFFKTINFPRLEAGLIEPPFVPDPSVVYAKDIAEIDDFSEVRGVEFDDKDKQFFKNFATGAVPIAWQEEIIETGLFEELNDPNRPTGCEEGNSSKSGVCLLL
Chain of UniProt Q92633 (whole entry, looked up): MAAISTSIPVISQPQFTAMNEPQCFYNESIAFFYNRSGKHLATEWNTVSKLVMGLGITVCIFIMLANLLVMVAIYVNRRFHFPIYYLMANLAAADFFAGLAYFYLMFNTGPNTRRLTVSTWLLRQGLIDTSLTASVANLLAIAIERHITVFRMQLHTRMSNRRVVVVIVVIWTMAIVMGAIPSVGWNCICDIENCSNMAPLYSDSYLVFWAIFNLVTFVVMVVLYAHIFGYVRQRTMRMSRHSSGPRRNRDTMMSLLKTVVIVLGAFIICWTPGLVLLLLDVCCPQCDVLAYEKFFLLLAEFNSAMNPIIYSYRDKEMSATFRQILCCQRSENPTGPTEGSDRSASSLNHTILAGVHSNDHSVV
Chain of UniProt Q9UKI8 (whole entry, looked up): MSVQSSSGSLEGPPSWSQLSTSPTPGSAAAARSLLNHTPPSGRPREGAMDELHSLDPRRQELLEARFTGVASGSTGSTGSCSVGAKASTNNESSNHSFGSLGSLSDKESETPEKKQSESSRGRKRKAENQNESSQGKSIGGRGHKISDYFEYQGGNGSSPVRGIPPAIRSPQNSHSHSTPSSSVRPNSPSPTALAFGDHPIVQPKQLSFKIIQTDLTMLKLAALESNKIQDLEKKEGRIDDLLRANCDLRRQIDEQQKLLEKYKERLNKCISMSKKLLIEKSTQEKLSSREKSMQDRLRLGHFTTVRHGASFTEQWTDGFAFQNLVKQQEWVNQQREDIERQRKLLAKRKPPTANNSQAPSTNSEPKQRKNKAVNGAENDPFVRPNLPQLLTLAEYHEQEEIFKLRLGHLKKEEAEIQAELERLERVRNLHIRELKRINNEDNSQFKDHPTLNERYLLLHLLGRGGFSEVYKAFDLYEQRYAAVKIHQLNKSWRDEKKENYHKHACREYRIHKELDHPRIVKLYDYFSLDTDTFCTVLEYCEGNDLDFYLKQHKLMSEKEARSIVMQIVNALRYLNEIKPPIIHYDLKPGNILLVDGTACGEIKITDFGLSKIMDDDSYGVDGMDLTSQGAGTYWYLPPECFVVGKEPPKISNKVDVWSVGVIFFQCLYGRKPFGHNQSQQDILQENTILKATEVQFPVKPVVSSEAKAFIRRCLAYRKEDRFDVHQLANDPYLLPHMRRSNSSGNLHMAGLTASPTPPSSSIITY

Study 1 — cell line: mouse MPNST tumor cells; technique: high-content immunofluorescence imaging; item: nuclear SOX9; tested at: 10 µM; time: 12 h; setting: mean of 2 replicates; reference: DMSO control; direction: higher = more nuclear SOX9
Structure (SMILES)	nuclear SOX9 intensity
CCCCC[C@H](O)/C=C/[C@H]1[C@H](O)CC(=O)[C@@H]1CCCCCCC(=O)O	97 % of DMSO
C/N=C(/NC#N)NCCSCc1csc(NC(=N)N)n1	87.3 % of DMSO
CCC(CC)Nc1nc(C)c(-c2ccc(OC(F)(F)F)cc2OC)nc1OC	106 % of DMSO
Oc1c(Cl)cc(Cl)c2cccnc12	112 % of DMSO
Nc1nc(F)nc2c1ncn2[C@@H]1O[C@H](CO)[C@@H](O)[C@@H]1O	114 % of DMSO and 112 % of DMSO
CNCCN1CCC(OCc2ccccc2)CC1	99.1 % of DMSO
OCCN(CCO)c1nc(N2CCCCC2)c2nc(N(CCO)CCO)nc(N3CCCCC3)c2n1	97.5 % of DMSO and 97.3 % of DMSO
C[C@]12CC[C@@H]3c4ccc(O)cc4CC[C@H]3[C@@H]1CCC2=O	105 % of DMSO
CC(C)(C)c1ccc2cc(C#N)c(C#N)cc2c1	152 % of DMSO
CC(=O)NC[C@H]1CN(c2ccc(N3CCOCC3)c(F)c2)C(=O)O1	93.6 % of DMSO and 114 % of DMSO
O=C1c2ccccc2-c2c(NCCc3ccccc3)c(=O)[nH]c3cccc1c23	285 % of DMSO

Study 2 — action: inhibitor; tested at: 10 µM; reference: control
Target: Diamine acetyltransferase 1 (Homo sapiens, UniProt P21673)
Target sequence (P21673 1-171): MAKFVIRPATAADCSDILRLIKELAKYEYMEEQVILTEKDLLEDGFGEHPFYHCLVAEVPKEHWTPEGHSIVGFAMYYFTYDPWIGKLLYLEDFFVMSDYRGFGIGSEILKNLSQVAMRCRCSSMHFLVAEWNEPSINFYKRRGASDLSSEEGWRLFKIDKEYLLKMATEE
Structure (SMILES)	remaining activity
CCCCCCCCCCCCCC(=O)O	102%
COc1c(CC=C(C)C)c(O)cc2oc(=O)c3c4ccc(O)cc4oc3c12	102%
C=C(C)C1CC=C(C)[C@@H](O)C1 (some centres unmarked)	88.1%
COc1ccc(-c2oc3cc(OC)cc(O)c3c(=O)c2O)cc1	103%
CCCCCCCC(=O)OCC	100%
COc1cc(CCC(=O)CC(=O)CCc2ccc(O)c(OC)c2)ccc1O	103%
COc1ccccc1C=O	95.3%
N[C@H](Cc1ccccc1)C(=O)O	109%
CCCCCCCCCCCCCCC	96.7%
Oc1cc(O)cc(CCc2ccccc2)c1	93%
COc1c(O)cc2c(c1O)C(=O)c1c(cc(C)c(O)c1OC)C2=O	109%
CSCC[C@H](N)C(=O)O	105%
Cc1c(O)cc2c(c1C)O[C@](C)(CCC[C@H](C)CCC[C@H](C)CCCC(C)C)CC2	105%

Study 3 — effect on: cell-free assay; technique: competition with immobilised ligand; tested at: 1 µM
SMILES: COc1ccc2c(c1)O[C@H](c1ccc(OC)c(OC)c1)C[C@@H]2NC(=O)C1(c2ccc3c(c2)OC(F)(F)O3)CC1
target	remaining binding [%]
Proto-oncogene tyrosine-protein kinase receptor Ret (RET, Homo sapiens, UniProt P07949, V804L)	87
Wee1-like protein kinase 2 (WEE2, Homo sapiens, UniProt P0C1S8)	100
Insulin receptor-related protein (INSRR, Homo sapiens, UniProt P14616)	100
Cyclin-dependent kinase-like 1 (CDKL1, Homo sapiens, UniProt Q00532)	83
Tyrosine-protein kinase Srms (SRMS, Homo sapiens, UniProt Q9H3Y6)	87
cAMP-dependent protein kinase catalytic subunit alpha (PRKACA, Homo sapiens, UniProt P17612)	100
Serine/threonine-protein kinase 32C (STK32C, Homo sapiens, UniProt Q86UX6)	84
TRAF2 and NCK-interacting protein kinase (TNIK, Homo sapiens, UniProt Q9UKE5)	100
Interleukin-1 receptor-associated kinase 4 (IRAK4, Homo sapiens, UniProt Q9NWZ3)	100
Rhodopsin kinase GRK7 (GRK7, Homo sapiens, UniProt Q8WTQ7)	100
Serine/threonine-protein kinase pim-1 (PIM1, Homo sapiens, UniProt P11309)	100
Mitogen-activated protein kinase kinase kinase 1 (MAP3K1, Homo sapiens, UniProt Q13233)	100
MAP/microtubule affinity-regulating kinase 3 (MARK3, Homo sapiens, UniProt P27448)	95
Vascular endothelial growth factor receptor 2 (KDR, Homo sapiens, UniProt P35968)	88
cAMP-dependent protein kinase catalytic subunit beta (PRKACB, Homo sapiens, UniProt P22694)	99
Serine/threonine-protein kinase tousled-like 1 (TLK1, Homo sapiens, UniProt Q9UKI8)	100
Ephrin type-A receptor 3 (EPHA3, Homo sapiens, UniProt P29320)	100
Mast/stem cell growth factor receptor Kit (KIT, Homo sapiens, UniProt P10721, T670I/V559D)	100
Tyrosine-protein kinase CSK (CSK, Homo sapiens, UniProt P41240)	100
Cyclin-dependent kinase 16 (CDK16, Homo sapiens, UniProt Q00536)	100
Tyrosine-protein kinase Fgr (FGR, Homo sapiens, UniProt P09769)	87
Tyrosine-protein kinase ABL1, phosphorylated (ABL1, Homo sapiens, UniProt P00519, F317L)	100

Study 4 — SMILES: CC(C)CN(C)c1nc(N)c(C(=O)N=C(N)N)nc1Cl; effect on: β-arrestin recruitment; action: agonist; technique: PRESTO-Tango; tested at: 10 µM; reference: untreated
target	fold over basal
G-protein coupled receptor 62 (GPR62, Homo sapiens, UniProt Q9BZJ7)	1.24
Pyroglutamylated RF-amide peptide receptor (QRFPR, Homo sapiens, UniProt Q96P65)	0.65
Relaxin-3 receptor 2 (RXFP4, Homo sapiens, UniProt Q8TDU9)	1.61
12-(S)-hydroxy-5,8,10,14-eicosatetraenoic acid receptor (GPR31, Homo sapiens, UniProt O00270)	0.62
Metabotropic glutamate receptor 2 (GRM2, Homo sapiens, UniProt Q14416)	0.78 fold
G-protein coupled receptor 61 (GPR61, Homo sapiens, UniProt Q9BZJ8)	0.73
Lysophosphatidic acid receptor 1 (LPAR1, Homo sapiens, UniProt Q92633)	1.09
C-C chemokine receptor type 3 (CCR3, Homo sapiens, UniProt P51677)	0.87
C-C chemokine receptor type 7 (CCR7, Homo sapiens, UniProt P32248)	1.14
Muscarinic acetylcholine receptor M4 (CHRM4, Homo sapiens, UniProt P08173)	0.68

Excerpt of the above (study 1):
Structure (SMILES)	nuclear SOX9 intensity
CC(C)(C)c1ccc2cc(C#N)c(C#N)cc2c1	152 % of DMSO
O=C1c2ccccc2-c2c(NCCc3ccccc3)c(=O)[nH]c3cccc1c23	285 % of DMSO
C/N=C(/NC#N)NCCSCc1csc(NC(=N)N)n1	87.3 % of DMSO
OCCN(CCO)c1nc(N2CCCCC2)c2nc(N(CCO)CCO)nc(N3CCCCC3)c2n1	97.5 % of DMSO and 97.3 % of DMSO
Oc1c(Cl)cc(Cl)c2cccnc12	112 % of DMSO
CC(=O)NC[C@H]1CN(c2ccc(N3CCOCC3)c(F)c2)C(=O)O1	93.6 % of DMSO and 114 % of DMSO
CCCCC[C@H](O)/C=C/[C@H]1[C@H](O)CC(=O)[C@@H]1CCCCCCC(=O)O	97 % of DMSO
